# Results pooled from the literature.
# Compare with care: the assays were run in different laboratories. “And” joins repeats or separate records; there may be more than shown. Numbers after ± are the reported error.
SMILES,cell line,assay,setting,scale,EC50
CCNC(=O)[C@H]1O[C@@H](n2cnc3c(N)ncnc32)[C@H](O)[C@@H]1O,aortic endothelial cells of db/db mice,"IL-6 production, activator",24 h,,0.046 µM
CC[C@H](C)[C@H](NC(=O)[C@H](C)NC(=O)[C@H](C)NC(=O)[C@H](CC(N)=O)NC(=O)[C@H](C)NC(=O)[C@H](C)NC(=O)[C@H](C)NC(=O)[C@H](CCCNC(=N)N)NC(=O)[C@H](CC(C)C)NC(=O)[C@@H](NC(=O)[C@H](CCC(=O)O)NC(=O)[C@@H]1CCCN1C(=O)CNC(=O)[C@H](CCCCN)NC(=O)[C@H](CCC(=O)O)NC(=O)[C@H](CCCCN)NC(=O)[C@@H](NC(=O)[C@H](Cc1ccccc1)NC(=O)[C@H](CC(=O)O)NC(=O)[C@H](CCCCN)NC(=O)[C@H](C)NC(=O)[C@H](CCCCN)NC(=O)[C@H](CC(N)=O)NC(=O)[C@H](CC(C)C)NC(=O)[C@H](Cc1c[nH]c2ccccc12)NC(=O)[C@H](CC(=O)O)NC(=O)[C@H](CCCCN)NC(=O)[C@H](Cc1c[nH]c2ccccc12)NC(=O)CN)[C@@H](C)CC)[C@@H](C)CC)C(=O)N[C@@H](CC(N)=O)C(=O)O,F11 cells,"intracellular calcium, FLIPR",0.1% BSA,,22.9 ± 1.95 µM
COP(=S)(OC)Oc1ccc([N+](=O)[O-])c(C)c1,Caco-2,"viability, MTT",168 h,,25.6 ± 0.8 µM
CC[C@H](C)[C@H](NC(=O)[C@H](CCCCN)NC(=O)[C@H](CCCCN)NC(=O)[C@H](C)NC(=O)[C@H](CC(C)C)NC(=O)[C@H](C)NC(=O)[C@H](C)NC(=O)[C@H](CC(C)C)NC(=O)[C@H](C)NC(=O)[C@H](CC(=O)O)NC(=O)[C@H](CC(C)C)NC(=O)[C@H](CC(N)=O)NC(=O)[C@@H](NC(=O)[C@H](CC(=O)O)NC(=O)CNC(=O)[C@H](CC(C)C)NC(=O)[C@H](CC(C)C)NC(=O)[C@H](Cc1c[nH]c2ccccc12)NC(=O)CNC(=O)[C@H](C)N)[C@@H](C)CC)C(=O)N[C@@H](CC(C)C)C(N)=O,sheep erythrocytes,turbidity,pH 7.5,,45 ± 0.05 µM
CC[P](CC)(CC)=[Au][S][C@@H]1O[C@H](COC(C)=O)[C@@H](OC(C)=O)[C@H](OC(C)=O)[C@H]1OC(C)=O,MCF-10A,"cell growth or viability, resazurin",72 h,,3.19 µM
F[P-](F)(F)(F)(F)F.F[P-](F)(F)(F)(F)F.[Ru+2].c1ccc(-c2ccccn2)nc1.c1ccc(-c2ccccn2)nc1.c1csc(-c2ccc(-c3cc4cccnc4c4ncccc34)s2)c1,HL-60,"cell viability, resazurin","16 h drug-to-light interval, together with: red light 625 nm, 100 J/cm2",,13.5 µM and ~14 µM
CC[C@H](C)[C@H](NC(=O)[C@H](CC(C)C)NC(=O)CNC(=O)[C@@H]1CCCN1C(=O)[C@H](CC(C)C)NC(=O)[C@H](C)NC(=O)[C@H](CCCCN)NC(=O)CNC(=O)[C@H](CC(C)C)NC(=O)[C@H](CCSC)NC(=O)[C@H](CCCCN)NC(=O)[C@H](C)NC(=O)[C@H](C)NC(=O)[C@H](C)NC(=O)CNC(=O)[C@H](Cc1c[nH]c2ccccc12)NC(=O)[C@@H](N)Cc1ccccc1)C(=O)N[C@@H](CO)C(=O)N[C@@H](CCSC)C(=O)N[C@@H](Cc1ccccc1)C(=O)N[C@@H](CCC(N)=O)C(=O)N[C@@H](CCCCN)C(=O)N[C@@H](CC(N)=O)C(=O)O,HEK293 cells,"intracellular calcium, FLIPR",0.1% BSA,,6.88 ± 1.98 µM
NC(=O)CBr,SW480 expressing Rad51-EGFP,Rad51 nuclear foci,24 h,baseline: 10 µM camptothecin,5.69 µM
CC1(C)[C@H](C(=O)O[C@H](C#N)c2cccc(Oc3ccccc3)c2)[C@@H]1/C=C(\Cl)C(F)(F)F (racemic),Caco-2,"viability, MTT",240 h,,59.5 ± 2.3 µM
CC[C@H](C)[C@H](NC(=O)[C@H](CCCCN)NC(=O)[C@H](CCCCN)NC(=O)[C@H](C)NC(=O)[C@H](CC(C)C)NC(=O)[C@H](C)NC(=O)[C@H](C)NC(=O)[C@H](CC(C)C)NC(=O)[C@H](C)NC(=O)[C@H](CCCCN)NC(=O)[C@H](CC(C)C)NC(=O)[C@H](CC(N)=O)NC(=O)[C@@H](NC(=O)[C@H](CCCCN)NC(=O)CNC(=O)[C@H](CC(C)C)NC(=O)[C@H](CC(C)C)NC(=O)[C@H](Cc1c[nH]c2ccccc12)NC(=O)CNC(=O)[C@H](C)N)[C@@H](C)CC)C(=O)N[C@@H](CC(C)C)C(N)=O,sheep erythrocytes,turbidity,pH 7.5,,47 ± 12 µM

# Some of these lines once more:
SMILES,cell line,assay,setting,scale,EC50
CC[C@H](C)[C@H](NC(=O)[C@H](C)NC(=O)[C@H](C)NC(=O)[C@H](CC(N)=O)NC(=O)[C@H](C)NC(=O)[C@H](C)NC(=O)[C@H](C)NC(=O)[C@H](CCCNC(=N)N)NC(=O)[C@H](CC(C)C)NC(=O)[C@@H](NC(=O)[C@H](CCC(=O)O)NC(=O)[C@@H]1CCCN1C(=O)CNC(=O)[C@H](CCCCN)NC(=O)[C@H](CCC(=O)O)NC(=O)[C@H](CCCCN)NC(=O)[C@@H](NC(=O)[C@H](Cc1ccccc1)NC(=O)[C@H](CC(=O)O)NC(=O)[C@H](CCCCN)NC(=O)[C@H](C)NC(=O)[C@H](CCCCN)NC(=O)[C@H](CC(N)=O)NC(=O)[C@H](CC(C)C)NC(=O)[C@H](Cc1c[nH]c2ccccc12)NC(=O)[C@H](CC(=O)O)NC(=O)[C@H](CCCCN)NC(=O)[C@H](Cc1c[nH]c2ccccc12)NC(=O)CN)[C@@H](C)CC)[C@@H](C)CC)C(=O)N[C@@H](CC(N)=O)C(=O)O,F11 cells,"intracellular calcium, FLIPR",0.1% BSA,,22.9 ± 1.95 µM
